Experimental data gathered from unrelated publications.
Compare with care: the assays were run in different laboratories. Several values in a cell are separate wells, animals, samples, runs or records. ± gives the spread as reported.
MAPK9: Mitogen-activated protein kinase 9 (MAPK9, Homo sapiens, UniProt P45984)
Gria2/Glutamate receptor 3: Gria2/Glutamate receptor 3 (Rattus norvegicus, UniProt P19491+P19492)
USP14: Ubiquitin carboxyl-terminal hydrolase 14 (USP14, Homo sapiens, UniProt P54578)
SLC6A9: Sodium- and chloride-dependent glycine transporter 1 (SLC6A9, Homo sapiens, UniProt P48067)
PPO3: PPO3 (Agaricus bisporus, UniProt C7FF04)

SMILES	target	assay	test system	setting	scale	endpoint	value
COC(=O)[C@@]1(C)C=C(C(=O)Nc2cccc(C(=O)Nc3ccc(Nc4nccc(-c5cccnc5)n4)c(C)c3)c2)C(=O)CC1	MAPK9	enzyme activity, inhibitor	–	0.5487 µM, unit not given	relative to: vehicle	remaining activity	0.244
O=C(O)Cc1cc2c(cc1C(=O)c1ccc(Cl)cc1Cl)OCO2	Gria2/Glutamate receptor 3	whole-cell patch clamp	HEK-293T	concentration not given, added: glutamate	–	desensitization time constant	0.6 ± 0.08 ms
CCOC(=O)C1(C2(O)C(=O)c3ccccc3C2=O)CCCC1=O (stereo not shown)	USP14	enzyme activity, inhibitor	–	17 µM	–	inhibition	17%
C#CCCCCNC(=O)c1ccc(N(C(=O)C=C)c2ccc(Br)cc2)cc1	3-ketoacyl-CoA thiolase, mitochondrial (Homo sapiens, UniProt P42765)	mass spectrometry profiling	H460 cell lysate	100 µM over 10 µM, UniProt P42765	relative to: high over low concentration	reactivity ratio	3.86
O=C1c2ccccc2C(=O)c2c1oc1c3c(ccc21)OCN(CC1CCCO1)C3 (stereo not shown)	USP14	enzyme activity, inhibitor	–	17 µM	–	inhibition	58%
N[C@H]1CC[C@H](Nc2nccc(-c3cccnc3Oc3ccc(NC(=O)NC4CC4)c4ccccc34)n2)CC1	MASTL (Homo sapiens, UniProt Q96GX5)	kinobead competition pulldown	HEK293/HCT116 lysate mixture	10 µM, 1 h, 4 °C	lower = stronger competition	log2 LFQ intensity	20.2 and 18 and 18.4 and 19.7
CC[C@H](C)[C@H](NC(=O)[C@@H](NC(=O)[C@@H](NC(=O)[C@@H](NC(=O)[C@H](CCCNC(=N)N)NC(=O)[C@H](CCC(=O)O)NC(=O)[C@H](CCC(=O)O)NC(=O)[C@H](C)NC(=O)[C@H](CCC(=O)O)NC(=O)CNC(=O)[C@H](C)NC(=O)CN)C(C)C)C(C)C)C(C)C)C(=O)N[C@@H](CO)C(=O)N[C@@H](CO)C(=O)N[C@@H](CO)C(=O)N[C@@H](CCC(=O)O)C(=O)N[C@@H](CC(=O)O)C(=O)N[C@@H](CO)C(=O)N[C@@H](CC(=O)O)C(=O)N[C@@H](C)C(=O)N[C@@H](CCC(=O)O)C(=O)N[C@@H](CC(N)=O)C(=O)N[C@@H](CO)C(=O)N[C@@H](CO)C(=O)N[C@@H](CO)C(=O)N[C@@H](CCCNC(=N)N)C(=O)N[C@@H](Cc1ccc(O)cc1)C(=O)O	Small ubiquitin-related modifier 1, residues 17-97 (Homo sapiens, UniProt P63165, C52A)	isothermal titration calorimetry	–	concentration not given, pH 7.4, N-terminally truncated SUMO1	–	enthalpy change (ΔH)	2.12 ± 0.22 kcal/mol
COc1ccc(C2(C(=O)N3CCC(Nc4nc5ccccc5c(=O)[nH]4)CC3)CC2)cc1	MRGPRD (Homo sapiens, UniProt Q8TDS7, Y245A)	miniGq recruitment, agonist, BRET	HEK293T	Y245A mutant	–	Hill slope	1.44
N[C@H]1C[C@@H](C(=O)O)CC1=C(Cl)Cl	ornithine aminotransferase (Toxoplasma gondii, UniProt S8EY38)	inactivator, SSDH-coupled NADPH	–	added: GABA substrate	–	kinact/KI	0.0833 M⁻¹ s⁻¹
CCOC(=O)C1CCCN(CCOC(=O)C(c2ccc(OC)cc2)c2ccc(OC)cc2)C1 (stereo not shown)	SLC6A9	cell-free assay	–	1 µM	–	remaining signal	80.9%
CCCCCCCCCCCCC/C=C/C=O	Ketosamine-3-kinase (FN3KRP, Homo sapiens, UniProt Q9HA64)	competitive isoTOP-ABPP	Ramos soluble proteome	100 µM, added: iodoacetamide probe	relative to: DMSO over compound-treated, higher = stronger cysteine blockade	isoTOP-ABPP competition ratio	1
CCOC(=O)C1CCCN(CCOC(CNCCC(=O)O)(c2ccc(OC)cc2)c2ccc(OC)cc2)C1 (stereo not shown)	SLC6A9	cell-free assay	–	1 µM	–	remaining signal	86.1%
Cc1cc(C)cc(COc2cc3c(cc2OCc2cc(C)cc(C)c2)C2CC(O)(Cc4cn(CCOCCOCCNC(=O)CCCCC5SCC6NC(=O)NC65)nn4)CC(C)N2CC3)c1 (stereo not shown)	Rab GDP dissociation inhibitor beta (Homo sapiens, UniProt P50395)	biotinylated probe pull-down, item: GDI2	–	10 µM probe	relative to: heavy over light	SILAC ratio	4.05
CC(C)Oc1cc(Cl)ccc1CNc1cc(-c2ccccc2)nc2ncnn12	GPR3 (Homo sapiens, UniProt P46089, Q215A)	cAMP level, cAMP GloSensor	–	100 nM	higher = more cAMP	cAMP luminescence	28800 a.u. and 25400 a.u. and 37700 a.u. and 32800 a.u. and 31900 a.u.
CC(C)[C@@H]1NC(=O)[C@H](Cc2ccccc2)NC(=O)CSC[C@@H](C(N)=O)NC(=O)[C@H](CCC(=O)O)NC(=O)[C@H](CO)NC(=O)[C@H](Cc2c[nH]c3cccc(Cl)c23)NC(=O)[C@H](C2CCCCC2)NC(=O)[C@H](C(C)C)NC(=O)[C@H](Cc2ccc(O)cc2)NC(=O)[C@H](CC(=O)O)NC(=O)[C@H](Cc2c[nH]c3ccccc23)NC(=O)[C@H](Cc2ccc(N)nc2)NC(=O)[C@H](Cc2c[nH]c3ccc(Cl)cc23)NC(=O)[C@H](CCC(=O)O)NC1=O	Interleukin-1 receptor-like 2 (IL1RL2, Homo sapiens, UniProt Q9HB29)	reporter gene (SEAP), inhibitor, HEK-Blue IL-36R reporter	HEK-Blue IL-36R cells	33.33 µM, 6 h, added: IL-36β 0.1 ng/mL	–	remaining activity	2.7%
C1=Cc2ccccc2N(Cc2cc(-c3ccc(OCc4ccccc4)cc3)no2)c2ccccc21	PPO3	enzyme activity, inhibitor	–	concentration not given	–	apparent Km	4.39 mM
C#CCOC(=O)[C@@]1(C)C=C(C(=O)Nc2cccc(C(=O)Nc3ccc(C)c(Nc4nccc(-c5cccnc5)n4)c3)c2)C(=O)CC1	MAPK9	enzyme activity, inhibitor	–	0.1829 µM, unit not given	relative to: vehicle	remaining activity	0.503

SMILES	target	assay	test system	setting	scale	endpoint	value
COC(=O)Cc1cc2c(cc1C(=O)c1cccc(Br)c1)OCO2	Gria2/Glutamate receptor 3	glutamate-evoked current, whole-cell patch clamp	HEK-293T	concentration not given, glutamate alone after washout, added: glutamate	–	current amplitude after recovery	485 ± 41 pA
CC(=O)NCCN(c1nc(N2CC3C(CCOc4cc(-c5scnc5C)ccc4CNC(=O)[C@@H]4C[C@@H](O)CN4C(=O)[C@@H](NC(=O)C4(F)CC4)C(C)(C)C)C3C2)nc(N2CC(n3ccnc3)C2)n1)C(C)C (stereo partly shown)	VHL/BRD9 (Homo sapiens, UniProt P40337+Q9H8M2)	BRD9 degradation, degrader, HiBiT	HEK293T BRD9-HiBiT	15 h	–	Dmax	58%
CC1=CC(=O)CN(S(=O)(=O)c2ccc(C)cc2)C1	USP14	enzyme activity, inhibitor	–	17 µM	–	inhibition	8%
CCCC[C@H](NC(=O)[C@H](CCC(N)=O)NC(=O)[C@H](CCC(=O)O)NC(=O)[C@@H]1CCCN1C(=O)[C@@H](NC(=O)[C@H](C)NC(=O)[C@H](CC(N)=O)NC(=O)[C@H](CC(=O)O)NC(=O)CNC(=O)[C@@H]1CCCN1C(=O)[C@H](Cc1ccc(O)cc1)NC(=O)[C@@H](NC(=O)[C@@H]1CCCN1C(=O)[C@H](CCC(=O)O)NC(=O)[C@H](CC(C)C)NC(=O)[C@@H]1CCCN1C(=O)[C@H](C)N)C(C)C)[C@@H](C)O)C(=O)N[C@@H](C)C(=O)N[C@@H](CCC(N)=O)C(=O)N[C@@H](Cc1ccc(O)cc1)C(=O)N[C@@H](C)C(=O)N[C@@H](CCCCNC(=O)c1ccc2c(c1)C(=O)OC21c2ccc(N(C)C)cc2Oc2cc(N(C)C)ccc21)C(=O)N[C@@H](CC(=O)O)C(=O)N[C@@H](CC(C)C)C(=O)N[C@@H](CCCNC(=N)N)C(=O)N[C@@H](CCCNC(=N)N)C(=O)N[C@@H](Cc1ccc(O)cc1)C(=O)N[C@H](C(=O)N[C@@H](CC(N)=O)C(=O)N[C@@H](CCCC)C(=O)N[C@@H](CC(C)C)C(=O)N[C@H](C(=O)N[C@@H](CCCNC(=N)N)C(=O)N1CCC[C@H]1C(=O)N[C@@H](CCCNC(=N)N)C(=O)N[C@@H](Cc1ccc(O)cc1)C(N)=O)[C@@H](C)O)[C@@H](C)CC	NPY4R (Homo sapiens, UniProt P50391, D289A)	NanoBRET binding	–	Nluc-tagged receptor D289A, unit not given	net BRET ratio	BRETmax	0.049 ± 0.0025
OC[C@H]1O[C@@H](Oc2cc3c(O)cc(O)cc3[o+]c2-c2cc(O)c(O)c(O)c2)[C@H](O)[C@@H](O)[C@H]1O	PPO3	fluorescence quenching	–	concentration not given	–	binding entropy	-296.9 ± 1.57 J/(mol·K)
O=C(N1CCCC1)n1cc(-c2ccc(-c3ccccc3)cc2)nn1	Patatin-like phospholipase domain-containing protein 7 (Pnpla7, Mus musculus, UniProt A2AJ88)	probe labelling, inhibitor, competitive ABPP-SILAC, item: Pnpla7	mouse T cells	concentration not given, 4 h, single peptide	relative to: treated over DMSO cells, lower = stronger inhibition	SILAC activity ratio	1.48 and 1.66 and 1.63 and 1.59 and 1.62
CC(C=CC=C(C)C=CC1=C(C)CCCC1(C)C)=CC=O	Rhodopsin (RHO, Homo sapiens, UniProt P08100, T17M)	immunostaining, item: opsin	COS-7 transfected	50.00 µM, unit not given	relative to: surface over total stained cells	plasma membrane localization	0.94
Cc1cnc2nc1Nc1cccc(c1)COC/C=C/COCc1cc(ccc1OCCN1CCOCC1)N2	SIK3 (Homo sapiens, UniProt Q9Y2K2)	cell-free assay	–	0.1 µM	–	remaining signal	100%
CN(CCc1ccc(Cl)c(Cl)c1)CC(O)COc1ccc(NS(C)(=O)=O)cc1 (stereo not shown)	PKD2L1 (Homo sapiens, UniProt Q9P0L9, F514A)	ion current, patch clamp	–	concentration not given	–	tail current	inhibited
N#CN1CC[C@H](C(=O)Nc2nc3c(s2)CN(C(=O)Cn2cc(CNC(=O)CCCC[C@@H]4SC[C@@H]5NC(=O)N[C@@H]54)nn2)CC3)C1	(E3-independent) E2 ubiquitin-conjugating enzyme (UBE2O, Homo sapiens, UniProt Q9C0C9)	probe binding, affinity probe, neutravidin pull-down LC-MS/MS	HEK293T, cell lysate	5 µM, 1 h, mean of three replicates, unit not given	higher = more pulled down	iBAQ abundance	950000
O=C(Nc1cc(C(=O)Nc2ccc(S(=O)(=O)O)cc2S(=O)(=O)O)cc(C(=O)Nc2ccc(S(=O)(=O)O)cc2S(=O)(=O)O)c1)Nc1cc(C(=O)Nc2ccc(S(=O)(=O)O)cc2S(=O)(=O)O)cc(C(=O)Nc2ccc(S(=O)(=O)O)cc2S(=O)(=O)O)c1	P2X purinoceptor 1 (P2RX1, Homo sapiens, UniProt P51575)	antagonist, calcium influx	–	31.6 nM, added: submaximal α,β-methylene ATP	relative to: ionomycin response	calcium influx	99% and 60.6% and 88.8% and 83.7%
C[Si](C)(C)C[C@@H](CN)CC(=O)O	HTR7 (Homo sapiens, UniProt P34969)	ligand displacement, radioligand	–	75 µM	–	inhibition	4%
CCCCCC=CC=C1C(=O)C=CC1CC=CCCCC(=O)O (stereo not shown)	Outer kinetochore KNL1 complex subunit ZWINT (ZWINT, Homo sapiens, UniProt O95229)	competitive isoTOP-ABPP, item: ZWINT cysteine peptide	proteome, soluble, MDA-MB-231	100 µM, added: iodoacetamide probe	relative to: DMSO over compound-treated, higher = stronger cysteine blockade	isoTOP-ABPP competition ratio	2.7
CC(=O)N1c2ccc(-c3ccc(CNC(=O)c4cn5cc(-c6cnc(N)nc6)nc(N6CCOCC6)c5n4)cc3)cc2CC[C@@H]1C	EP300 (Homo sapiens, UniProt Q09472)	binding, competition with immobilised ligand	–	10 µM	–	remaining binding	27%
CC(=O)OC[C@H]1O[C@@H](n2cc(CSc3nc4ccccc4n3Cc3cn([C@@H]4O[C@H](COC(C)=O)[C@@H](OC(C)=O)C(OC(C)=O)[C@H]4OC(C)=O)nn3)nn2)[C@H](OC(C)=O)C(OC(C)=O)[C@@H]1OC(C)=O (stereo in doubt)	DNA topoisomerase I (calf thymus)	enzyme activity, inhibitor	MDA-MB-231	50, 100, 500 ppm, 30 min, 37 °C	–	geometric mean inhibition	63.3%
Nc1ccc(N2CCOCC2)c2nonc12	USP14	enzyme activity, inhibitor	–	17 µM	–	inhibition	93%
O=C(O)Cc1cc2c(cc1C(=O)c1ccccc1)OCO2	Gria2/Glutamate receptor 3	glutamate-evoked current, whole-cell patch clamp	HEK-293T	concentration not given, weighted tau, 1 ms pulse, added: glutamate	–	deactivation time constant	2.6 ± 0.2 ms

For quick reference, copied from above:
SMILES	target	assay	test system	setting	scale	endpoint	value
OC[C@H]1O[C@@H](Oc2cc3c(O)cc(O)cc3[o+]c2-c2cc(O)c(O)c(O)c2)[C@H](O)[C@@H](O)[C@H]1O	PPO3	fluorescence quenching	–	concentration not given	–	binding entropy	-296.9 ± 1.57 J/(mol·K)
O=C(N1CCCC1)n1cc(-c2ccc(-c3ccccc3)cc2)nn1	Patatin-like phospholipase domain-containing protein 7 (Pnpla7, Mus musculus, UniProt A2AJ88)	probe labelling, inhibitor, competitive ABPP-SILAC, item: Pnpla7	mouse T cells	concentration not given, 4 h, single peptide	relative to: treated over DMSO cells, lower = stronger inhibition	SILAC activity ratio	1.48 and 1.66 and 1.63 and 1.59 and 1.62
